Measurements from different studies.
Values joined by “and” are separate records of one study, mostly repeats; a detail may differ. Numbers after ± are the reported error.

| SMILES | assay | system | setting | half-life |
| --- | --- | --- | --- | --- |
| Cc1[nH]c(/C=C2\C(=O)Nc3ccccc32)c(C)c1CCC(=O)O | HPLC-UV | human, cancer patients, plasma | oral, 400 mg/m^2 three times daily, after meal, second dose | 119 min |
| CCCC[C@H](NC(C)=O)C(=O)N[C@H]1CCC(=O)NC[C@@H](C(=O)N[C@@H](Cc2c[nH]c3ccccc23)C(N)=O)NC(=O)[C@H](CCCNC(=N)N)NC(=O)[C@@H](Cc2ccccc2)NC(=O)[C@H](Cc2c[nH]cn2)NC1=O |  | healthy human volunteers, plasma | subcutaneous, 1.0 mg once daily, day 7 | 426 min |
| CCOc1ccc(Cc2cc([C@]34OC[C@](CO)(O3)[C@@H](O)[C@H](O)[C@H]4O)ccc2Cl)cc1 |  | human, plasma | oral, 15 mg, together with: sitagliptin 100 mg | 850 ± 273 min |
| Nc1nc2c(c(=O)[nH]1)N(C=O)C(CNc1ccc(C(=O)N[C@@H](CCC(=O)O)C(=O)O)cc1)CN2 (stereo partly drawn) | item: 5-formyltetrahydrofolate | human, plasma | intravenous, 214 nmol | 14.6 min and 19.8 min and 18.9 min and 18.3 min and 16.7 min |
| CC(C)(C)OC[C@@H]1C(=O)NCCN1C(=O)C[C@H](N)Cc1cc(F)c(F)cc1F |  | human, male, plasma | oral, single dose, fixed-dose combination with metformin, fasted | 1960 ± 429 min |
| CCOc1cc([C@@H](CS(C)(=O)=O)N2C(=O)c3cccc(NC(C)=O)c3C2=O)ccc1O[C@@H]1O[C@H](C(=O)O)[C@@H](O)[C@H](O)[C@H]1O |  | healthy human controls, plasma | oral, 30 mg apremilast, matched to severe impairment | 1030 min |
| O=C(/C=C/c1cccc(S(=O)(=O)Nc2ccccc2)c1)NO |  | human severe liver dysfunction, plasma | intravenous, 400 mg/m^2, 30 min infusion, cycle 1 day -7 | 157 min |
| CNC(=O)c1ccc(-c2cnc3ncc(Cc4ccc5ncccc5c4)n3n2)cc1F |  | healthy human subjects, plasma | oral, 200 mg, geometric mean, alone | 497 min |
| Cc1ccc(NC(=O)c2ccc(CN3CCNCC3)cc2)cc1Nc1nccc(-c2cccnc2)n1 |  | human, plasma | oral, 400 mg imatinib first dose, day 1 of cycle 1, metabolite of imatinib alone, mean | 864 min |
| O=C(c1cccnc1-c1ccncc1)N1CCC(O)(Cc2ccccc2)CC1 |  | healthy human, plasma | oral, 100 mg once daily, day 14, arithmetic mean | 230 min |
| CO[C@H]1C[C@@H]2CC[C@@H](C)[C@@](O)(O2)C(=O)C(=O)N2CCCC[C@H]2C(=O)O[C@H]([C@H](C)C[C@@H]2CC[C@@H](O)[C@H](OC)C2)CC(=O)[C@H](C)/C=C(\C)[C@@H](O)[C@@H](OC)C(=O)[C@H](C)C[C@H](C)/C=C/C=C/C=C/1C |  | healthy human subjects, whole blood | oral, 2 mg single dose, arithmetic mean, together with: isavuconazole 200 mg once daily after loading | 4710 min |
| COCCCCn1c(C(=O)N(CC(C)C)[C@@H]2CNC[C@H](C(=O)N3CCOCC3)C2)nc2ccccc21 |  | human, elderly, plasma | oral, 80 mg once daily, day 7, mean | 888 min |
| CCS(=O)(=O)N1CC(CC#N)(n2cc(-c3ncnc4[nH]ccc34)cn2)C1 |  | healthy Chinese human subjects, plasma | oral, 2 mg, single dose, mean | 351 min |
| CCOc1ccc(Cc2cc([C@@H]3S[C@H](CO)[C@@H](O)[C@H](O)[C@H]3O)c(OC)cc2C)cc1 |  | human, plasma | oral, 10 mg/day, day 1, multiple dose before breakfast | 549 ± 44.8 min |
| Cc1cccc(C)c1OCC(=O)N[C@@H](Cc1ccccc1)[C@@H](O)C[C@H](Cc1ccccc1)NC(=O)[C@H](C(C)C)N1CCCNC1=O |  | human, HIV+/HCV−, plasma | oral, total drug, steady state, median, together with: lopinavir/ritonavir twice daily | 432 min |
| Cl.NCCc1c[nH]c(=S)n1[C@H]1COc2c(F)cc(F)cc2C1 | mean | human, male, plasma | oral, 200 mg, fasting | ~1190 min |
| CN1CC[C@@H](NC(=O)Nc2ccc(C#N)cc2)C[C@@H]1c1nc2ccccc2[nH]1 | item: total compound | human, moderate hepatic impairment, plasma | oral, 100 mg, fasted, single dose, arithmetic mean | 1100 ± 210 min |
| CO[C@H]1C[C@@H]2CC[C@@H](C)[C@@](O)(O2)C(=O)C(=O)N2CCCC[C@H]2C(=O)O[C@H]([C@H](C)C[C@@H]2CC[C@@H](O)[C@H](OC)C2)CC(=O)[C@H](C)/C=C(\C)[C@@H](O)[C@@H](OC)C(=O)[C@H](C)C[C@H](C)/C=C/C=C/C=C/1C |  | human, whole blood | oral, 25 mg, without grapefruit juice | 1800 min |

Some of these lines once more:
| SMILES | assay | system | setting | half-life |
| --- | --- | --- | --- | --- |
| CO[C@H]1C[C@@H]2CC[C@@H](C)[C@@](O)(O2)C(=O)C(=O)N2CCCC[C@H]2C(=O)O[C@H]([C@H](C)C[C@@H]2CC[C@@H](O)[C@H](OC)C2)CC(=O)[C@H](C)/C=C(\C)[C@@H](O)[C@@H](OC)C(=O)[C@H](C)C[C@H](C)/C=C/C=C/C=C/1C |  | human, whole blood | oral, 25 mg, without grapefruit juice | 1800 min |
| CC(C)(C)OC[C@@H]1C(=O)NCCN1C(=O)C[C@H](N)Cc1cc(F)c(F)cc1F |  | human, male, plasma | oral, single dose, fixed-dose combination with metformin, fasted | 1960 ± 429 min |
